{"data": "Measured values from different studies", "note": "Numbers after ± are the reported error."}
{"SMILES": "C=CC(=O)N1C[C@H](C)N(c2nc(OC[C@@]34CCCN3C[C@H](F)C4)nc3c(F)c(-c4ccc(F)c5sc(N)c(C#N)c45)c(C(F)(F)F)cc23)C[C@H]1C", "test system": "NCI-H358 xenograft, mouse", "conditions": "oral, 0.3 mg/kg once daily, 28 days", "measurement": "tumour volume reduction", "value": "20%"}
{"SMILES": "Cc1ncsc1-c1ccc(C(CO)NC(=O)C2CC(O)CN2C(=O)C(C(C)C)n2cc(-c3ccc(COc4c(-c5c(C)c(F)cc6[nH]ncc56)c(C5CC5)cc5c(N6CC7CC6CN7)nc(OC6CCOCC6)nc45)cc3)nn2)cc1 (centres unmarked)", "test system": "mouse PK-59 xenograft", "conditions": "intravenous, 10 mg/kg once weekly, day 21", "measurement": "tumour regression", "value": "18%"}
{"SMILES": "COc1ccc2nc(NC(=O)c3ccc(C(N)c4ccccc4)cc3)sc2c1 (centres unmarked)", "test system": "Nod-Scid mouse H1155 xenograft", "conditions": "intraperitoneal, 25 mg/kg twice daily, 10 to 15 days", "measurement": "tumour growth", "value": "no effect"}
{"SMILES": "CC1OC(Oc2c(-c3ccc(O)cc3)oc3cc(O)cc(O)c3c2=O)C(OC(=O)C=Cc2ccc(O)cc2)C(O)C1OC(=O)C=Cc1ccc(O)cc1 (centres unmarked)", "test system": "mouse C57BL/6, orthotopic Hepa1-6", "conditions": "ip, 50 or 100 mg/kg, outcome inhibited", "measurement": "tumour growth", "value": "inhibited"}
{"SMILES": "O=C([O-])CN1CCN(CC(=O)[O-])CCN(CC(=O)NC[C@H]2CC[C@H](C(=O)N[C@H](Cc3cnc4ccccc4c3)C(=O)NCCCC[C@H](NC(=O)N[C@@H](CCC(=O)O)C(=O)O)C(=O)O)CC2)CCN(CC(=O)[O-])CC1.[64Cu+2]", "test": "micro-PET", "test system": "mouse 22Rv1 xenograft", "conditions": "intravenous, 5.55 MBq, 24 h", "measurement": "tumour SUVmax", "value": "2.84 ± 0.46"}
{"SMILES": "C[C@@H](O)[C@H](NC(=O)[C@@H]1CSSC[C@H](NC(=O)[C@@H](Cc2ccccc2)NC(=O)CCNC(=S)Nc2ccc(C[C@H]3CN(CC(=O)O)CCN(CC(=O)O)CCN3CC(=O)O)cc2)C(=O)N[C@@H](Cc2ccc(O)cc2)C(=O)N[C@H](Cc2c[nH]c3ccccc23)C(=O)N[C@@H](CCCCN)C(=O)N[C@@H]([C@@H](C)O)C(=O)N1)C(=O)O [copper-64 labelled]", "test system": "HCT116-SSTR2, NCr nude mouse female xenograft", "conditions": "dose not given, 4 h, 64Cu-labelled, added: Y3-TATE 50 µg, 30 min prior", "measurement": "tumour uptake decrease", "value": "76%"}
{"SMILES": "CC(=O)[CH](C(C)=O)[Pt-2]1([S+](C)C)[O]C(C)=CC(C)=[O+]1 (centres unmarked)", "test system": "MCF7, BALB/c nude mouse xenograft", "conditions": "dose not given", "measurement": "tumour mass reduction", "value": "≤ 50%"}
{"SMILES": "NC(=O)c1cccnc1.O.O=c1[nH]cc(F)c(=O)[nH]1.O=c1[nH]cc(F)c(=O)[nH]1.O=c1[nH]cc(F)c(=O)[nH]1", "test system": "nude mouse HCT-116 xenograft", "conditions": "0.018 mmol/kg/day, 21 days", "measurement": "tumour weight", "value": "0.5 ± 0.1 g"}
{"SMILES": "Cc1cc(O)cc(O)c1C(=O)c1c2c3c(c(O)cc(C)c3oc1=O)C(=O)c1c(O)cc(O)cc1-2", "test system": "H22 subcutaneous, mouse", "conditions": "intraperitoneal, 45 mg/kg daily", "measurement": "tumour growth inhibition", "value": "66%"}
{"SMILES": "CN1CCN(C(=O)N(CCCCCCC(=O)NO)c2ccc(-c3ccc4cnn(C)c4c3)cc2)CC1", "test system": "NOD.CB17 SCID mouse, MM.1S xenograft", "conditions": "intraperitoneal, 40 and 60 mg/kg twice weekly", "scale": "baseline: vehicle", "measurement": "tumour size", "value": "decreased"}
{"SMILES": "Cc1cc2c(cc1O)C=C1C=CC(=O)C(C)(C)[C@H]1CC2", "test system": "mouse AOM/DSS colitis-associated cancer", "conditions": "50 mg/kg, day 84", "measurement": "tumour incidence", "value": "62.5%"}
{"SMILES": "C[C@H](NC(=O)CNC(=O)[C@H](CCC(=O)O)NC(=O)[C@H](CCC(=O)O)NC(=O)[C@H](CC(=O)O)NC(=O)[C@@H]1CCCN1C(=O)[C@H](Cc1ccccc1)NC(=O)[C@H](CS)NC(=O)[C@H](Cc1ccc(O)cc1)NC(=O)CCCNC(=O)CNC(=O)CNC(=O)[C@@H](C)NC(=O)CN)C(=O)N[C@@H](CS)C(=O)N[C@@H](Cc1ccc(O)cc1)C(N)=O [technetium-99m labelled]", "test": "SPECT", "test system": "BALB/c nude mouse, SKBR3 tumour", "conditions": "intravenous, 37 MBq, 60 min", "measurement": "tumour to non-tumour ratio", "value": 4.23}
{"SMILES": "C#CCCCC(O)/C=C/C(=O)NC1(c2ccc(-c3nc4ccn5c(=O)[nH]nc5c4cc3-c3ccccc3)cc2)CCC1 (centres unmarked)", "test system": "mouse, MDA-MB-468 xenograft", "conditions": "oral, 200 mg/kg twice weekly", "scale": "baseline: DMSO vehicle", "measurement": "tumour growth suppression", "value": "31%"}
{"SMILES": "CCN(C(=O)c1cc(F)ccc1Oc1nncnc1N1CCC2(C1)CN([C@H](CCCN(C)CCOC)C(C)C)C2)C(C)C", "test system": "mouse, subcutaneous MOLM-14 AML xenograft", "conditions": "oral, 50 mg/kg daily, 5 weeks", "measurement": "tumour regression", "value": "97%"}
{"SMILES": "COc1ccc(CCNc2ncnc3sc(C)cc23)cc1OC", "test": "item: CD31", "test system": "mouse LNCaP xenograft", "conditions": "intraperitoneal, 2.6 mg/kg daily", "measurement": "tumour angiogenesis", "value": "decreased"}
{"SMILES": "O=c1[nH]c(N2CCC3(CC2)CN(CCO)c2cc(F)cc(F)c23)nc2c1CCCC2", "test system": "mouse COLO 320DM xenograft", "conditions": "intraperitoneal, 100 mg/kg once daily, 5 days on 2 off, 2 weeks", "measurement": "tumour growth inhibition", "value": "32.9%"}
{"SMILES": "Clc1ccc2ccc3[n+](c2c1)[Ir-3]12([c]4ccccc4-3)([c]3ccccc3-c3ccc4ccc(Cl)cc4[n+]31)[n+]1ccccc1-c1cccc[n+]12.F[P-](F)(F)(F)(F)F", "test system": "BALB/c mouse, 4T1 allograft", "conditions": "intraperitoneal, 2 mg/kg daily, 18 days", "measurement": "tumour weight reduction", "value": "43.3%"}
{"SMILES": "C#CCCCC(F)/C=C/C(=O)NC1(c2ccc(-c3nc4ccn5c(=O)[nH]nc5c4cc3-c3ccccc3)cc2)CCC1 (centres unmarked)", "test system": "mouse, MDA-MB-468 xenograft", "conditions": "oral, 200 mg/kg twice weekly", "measurement": "tumour growth slope", "value": "0.0473 ± 0.0015"}
{"SMILES": "Clc1ccc(NN=C(c2ccccc2)c2ccccn2)nc1", "test system": "nude mouse, A549 xenograft", "conditions": "oral gavage, 55 mg/kg", "scale": "baseline: vehicle", "measurement": "tumour weight", "value": "decreased"}
{"SMILES": "CCc1cnc(NC(=O)c2cc(S(=O)(=O)N3CCOCC3)ccc2N(C)C2CCCC2)s1", "test system": "mouse, HCC827-GR xenograft", "conditions": "intraperitoneal, 10 mg/kg every other day, day 15", "measurement": "tumour volume", "value": "186 ± 16 mm³"}
{"note": "Some of these lines once more:"}
{"SMILES": "CCN(C(=O)c1cc(F)ccc1Oc1nncnc1N1CCC2(C1)CN([C@H](CCCN(C)CCOC)C(C)C)C2)C(C)C", "test system": "mouse, subcutaneous MOLM-14 AML xenograft", "conditions": "oral, 50 mg/kg daily, 5 weeks", "measurement": "tumour regression", "value": "97%"}
{"SMILES": "COc1ccc(CCNc2ncnc3sc(C)cc23)cc1OC", "test": "item: CD31", "test system": "mouse LNCaP xenograft", "conditions": "intraperitoneal, 2.6 mg/kg daily", "measurement": "tumour angiogenesis", "value": "decreased"}
